Measurements of several laboratories.
Every numbered part comes from another study and shows a few of its results, in no order. Substitutions count along the parent as printed.

Study 1 — target: CEBPB, bZIP domain (human); method: DHFR protein complementation; matrix: yeast; reference: wild-type JUN-FOS pair; reading: higher = stronger binding
Setting: single substitutions, most at no-binding floor
Starting sequence: JUN, bZIP domain (human); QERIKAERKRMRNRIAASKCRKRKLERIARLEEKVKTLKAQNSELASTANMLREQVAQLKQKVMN; partner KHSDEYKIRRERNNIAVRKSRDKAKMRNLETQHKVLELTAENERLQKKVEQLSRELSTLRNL
`Q41S` gave a binding fitness of -1.51 natural log.
With `T37E` the binding fitness was -1.05 natural log.
For `L52M`, the binding fitness was -1.45 natural log.
For `A57K`, the binding fitness was -1.36 natural log.
`V35A` gave a binding fitness of -1.37 natural log.
The binding fitness of `L52G` is reported as -1.52 natural log.
The binding fitness of `E54I` is reported as -1.43 natural log.
`R30E` has a binding fitness of -0.907 natural log.
For `Q41R`, the binding fitness was -1.31 natural log.
`E33L` gave a binding fitness of -1.34 natural log.
The binding fitness of `A29L` is reported as -1.34 natural log.
With `V35K` the binding fitness was -1.46 natural log.
For `S47M`, the binding fitness was -1.18 natural log.
With `A57M` the binding fitness was -1.42 natural log.
The binding fitness of `V56N` is reported as -1.33 natural log.
With `M51W` the binding fitness was -1.32 natural log.
The binding fitness of `L52Y` is reported as -1.58 natural log.
For `A49E`, the binding fitness was -1.39 natural log.
For `V56R`, the binding fitness was -1.53 natural log.
For `M51R`, the binding fitness was -1.2 natural log.
`V35S` has a binding fitness of -1.49 natural log.
`A40E` gave a binding fitness of -1.27 natural log.
`A49G` gave a binding fitness of -1.53 natural log.
The binding fitness of `A49R` is reported as -1.34 natural log.
The binding fitness of `R53N` is reported as -1.4 natural log.

Study 2 — method: DHFR PCA, deep sequencing; matrix: yeast; with: (+)-ABA 17 µM; reference: wild-type fitted maximum; reading: higher = stronger binding
Target: ABI1, truncated, D143A, DHFR fusion (Arabidopsis thaliana)
Setting: methotrexate growth selection, single substitutions
Starting sequence: PYL1, truncated, DHFR fusion (Arabidopsis thaliana); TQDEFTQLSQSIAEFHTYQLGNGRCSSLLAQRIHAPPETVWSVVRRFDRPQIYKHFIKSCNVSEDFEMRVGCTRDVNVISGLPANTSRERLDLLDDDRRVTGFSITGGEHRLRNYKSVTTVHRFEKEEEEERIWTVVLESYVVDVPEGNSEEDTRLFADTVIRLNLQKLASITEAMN
For `F5H`, “relative binding score” read 77.1%.
For `T1N`, “relative binding score” read 85.1%.
For `E151F`, “relative binding score” read 73.3%.
`I162L`: “relative binding score” 26.3%.
`P36I`: “relative binding score” 34.5%.
`H34Y`: “relative binding score” 80%.
For `I79K`, “relative binding score” read 69.6%.
Under “relative binding score”, `Q7P` is recorded as 76%.
Under “relative binding score”, `E151W` is recorded as 59.1%.
For `V43L`, “relative binding score” read 75.9%.
For `G81C`, “relative binding score” read 25.3%.
`S63Y` — result for “relative binding score”: 57.5%.
`S63G`: “relative binding score” 88.2%.
Under “relative binding score”, `G102Y` is recorded as 0.354%.
`S59W`: “relative binding score” 35.7%.
`S171P` — result for “relative binding score”: 2.07%.
Under “relative binding score”, `I57Q` is recorded as 15.2%.
`L164P`: “relative binding score” 1.41%.
Under “relative binding score”, `T135N` is recorded as 6.03%.
`R132A` — result for “relative binding score”: 97.6%.
`E131K` — result for “relative binding score”: 100%.
For `D65R`, “relative binding score” read 71.1%.

Study 3 — method: EMSA with sequencing; form: double-stranded DNA, one strand shown; matrix: in vitro; concentration: 10 and 20 nM; reference: negative control set to 0; reading: higher = stronger binding
Target: Hepatocyte nuclear factor 3-alpha (Foxa1, Mus musculus, UniProt P35582, residues 1-468, full length assumed)
Setting: whole designed probe, mean of two concentrations, ends assumed
Residues (chain): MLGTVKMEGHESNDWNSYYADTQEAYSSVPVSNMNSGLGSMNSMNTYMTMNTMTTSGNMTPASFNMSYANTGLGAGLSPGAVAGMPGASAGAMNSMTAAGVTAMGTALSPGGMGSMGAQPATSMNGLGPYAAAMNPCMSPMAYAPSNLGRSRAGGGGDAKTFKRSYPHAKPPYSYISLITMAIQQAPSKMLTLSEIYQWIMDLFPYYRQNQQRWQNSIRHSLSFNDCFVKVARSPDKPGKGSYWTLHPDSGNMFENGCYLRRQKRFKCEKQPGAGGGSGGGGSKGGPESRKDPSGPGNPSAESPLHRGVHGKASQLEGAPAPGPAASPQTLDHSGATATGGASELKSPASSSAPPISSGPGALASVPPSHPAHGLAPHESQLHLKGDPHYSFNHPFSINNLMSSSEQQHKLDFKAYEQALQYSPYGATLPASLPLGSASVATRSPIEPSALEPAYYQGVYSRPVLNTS
Under “normalised bound fraction”, `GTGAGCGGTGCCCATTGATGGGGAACTGATATTCCTCAAATATCGTATTTGGCAATACTAGTGGAATACGATATCTAGATAAGGTTACTGTATTGAAATGACAAGGTTGTACTGTGGACCTGTTTACTTTGTGACTTTGCCACTTATTTCCTAAAATATCACCATTACTTAAAACAATTCAAGAGCAGCCTACTCTTCCAAAATAAATTGCTTTATACATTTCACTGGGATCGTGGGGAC` is recorded as 0.381 ratio.
`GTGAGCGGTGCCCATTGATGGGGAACCACTAGCCAAGCAAATGCTACCTTTCCTAAATTACGCCGTGGTATTGTGTACGACAGCAGCAGGGTTGCTATTTTAAAATGGGATTGCGTAAAATAAACATGTGCCCAGATGCTAAACAGGAAGTAGTTGATGATTAATTGATGCTCTGGTACGGCCTCGTGCTTTCCAGTGCTTCCATTTGTGTGACGATCCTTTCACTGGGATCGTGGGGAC` — result for “normalised bound fraction”: 0.24 ratio.
`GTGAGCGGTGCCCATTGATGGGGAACATCTTCCCCCTCTTCCTTGCCCCACCAGCTCACCTTCCCGGGTTATTTGCAGATAGTATTTATTTTCAAGCCGGCATTCGTTAACCCTCTTCTGGCGCAAACTGCACATTGGTCTGGATGAATCATGGTCCTTTGGCGACGCCAGGCTCCGGGAGAGCAAAGCACCGTGTCAGGGCCATGATCCGGGGTGGCCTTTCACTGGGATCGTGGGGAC` — result for “normalised bound fraction”: 0.172 ratio.
`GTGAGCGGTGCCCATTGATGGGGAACATCTTCCCCCTCTTCCTTGCCCCACCAGCTCACCTTCCCGGGTTATTTGCAGATAGGAAAATAAATAAAGCCGGCATTCGTTAACCCTCTTCTGGCGCAAACTGCTGTTTGCTCTGGATGAATCATGGTCCTTTGGCGACGCCAGGCTGAGCACACATCAGCGCGGGAGTCAGGGCCATGATCCGGGGTGGCCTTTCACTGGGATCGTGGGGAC` — result for “normalised bound fraction”: 0.357 ratio.
`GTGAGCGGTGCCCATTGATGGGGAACATCTTCCCCCTCTTCCTTGCCCCACCAGCTCACCTTCCCGGGTTATTTGCAGATAGGAAAATAAATAAAGCCGGCATTCGTTAACCCTCTTCACGCGCATACTGCTGTTTGCTCTGGATGAATCATGGTCCTTTGGCGAGGCGTGGCTCCGGGAGAGCAAAGCACCGTGTCAGGGCCATGATCCGGGCTCGCCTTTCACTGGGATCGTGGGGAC` — result for “normalised bound fraction”: 0.336 ratio.

Study 4 — method: protein-binding microarray; form: double-stranded DNA, one strand shown; matrix: in vitro; concentration: 250 nM; setting: 60-bp whole probe; with: salmon DNA 0.4 mg/ml; reference: random background probes; reading: higher = stronger binding; constant ends, left off below: GCCTAGCAC … GTCTTGATTCGCTTGACGCTGCTG
Target: Interferon regulatory factor 7, full length, phosphomimetic (IRF7, Homo sapiens, UniProt Q92985, residues 1-503, S101K/S471D/S472D/S475D/S476D/S477D/S483D/S484D/S487D)
Target sequence (chain): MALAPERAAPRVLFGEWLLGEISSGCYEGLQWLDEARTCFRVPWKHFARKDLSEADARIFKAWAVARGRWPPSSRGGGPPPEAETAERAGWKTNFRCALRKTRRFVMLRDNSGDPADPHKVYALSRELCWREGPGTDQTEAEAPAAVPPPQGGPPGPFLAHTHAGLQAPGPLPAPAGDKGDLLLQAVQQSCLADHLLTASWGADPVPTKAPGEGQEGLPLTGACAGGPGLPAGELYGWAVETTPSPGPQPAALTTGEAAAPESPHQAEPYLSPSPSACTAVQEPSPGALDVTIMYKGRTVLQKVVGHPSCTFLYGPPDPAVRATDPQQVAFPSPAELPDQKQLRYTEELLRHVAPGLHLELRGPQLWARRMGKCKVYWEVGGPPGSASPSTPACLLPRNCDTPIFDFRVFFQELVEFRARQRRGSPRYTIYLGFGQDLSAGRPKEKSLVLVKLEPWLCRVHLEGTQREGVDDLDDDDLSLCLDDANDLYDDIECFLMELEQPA
`TCATCTTTAACATATTCTACTGTGCTA` has a log fluorescence of 0.596 z-score.
`TCATTTCTTTTTTTCTTACTGTGCTAG` gave a log fluorescence of 2.34 z-score.
`TTAGGTCTCATACTGCTTTAGTGCTAG` has a log fluorescence of 0.352 z-score.
`TCAACACTAGTTTTCATACTGTGCTAG` has a log fluorescence of 0.176 z-score.
For `TTAGATTTCGGGTTTCGATAAGTGCTA`, the log fluorescence was 4.54 z-score.
With `TTAGATCTCAGTCTTGATTAGTGCTAG` the log fluorescence was -0.047 z-score.
The log fluorescence of `TTAGGTTTCGGGTATCGGGTAGTGCTA` is reported as 6.66 z-score.
With `TTAGGTTTCGGGTTTCGGTCAGTGCTA` the log fluorescence was 11 z-score.
With `GACGGTTTCCGTATCCTGACGTGCTAG` the log fluorescence was 3.85 z-score.
`TTAGGACTGGGTCTCGGTAAGTGCTAG` has a log fluorescence of 0.224 z-score.
For `GACGATTTCGGGTTTCGGGACGTGCTA`, the log fluorescence was 3.68 z-score.
`CTTACTTCCCAATTGTCTTTGTGCTAG` has a log fluorescence of 1.68 z-score.
The log fluorescence of `TTAGAAATCGGGTTTCGATTAGTGCTA` is reported as 7.7 z-score.
For `GATGGTCTCGGTCTCGGGACGTGCTAG`, the log fluorescence was 0.869 z-score.
With `TTAGGTATCGGGTAACGGTTAGTGCTA` the log fluorescence was 0.416 z-score.
The log fluorescence of `GACTGACTGGACTTTCGGGACGTGCTA` is reported as -0.397 z-score.
`GACGACATCGGGACTGGAGACGTGCTA` gave a log fluorescence of -0.539 z-score.
`TCAGGTATCGGTATCGGTTAGTGCTAG` gave a log fluorescence of 2.81 z-score.
With `GAGGGTATCGGTCTCGGGACGTGCTAG` the log fluorescence was 0.18 z-score.

A few entries again (study 2):
For `G81C`, “relative binding score” read 25.3%.
`R132A` — result for “relative binding score”: 97.6%.
`S59W`: “relative binding score” 35.7%.
For `E151F`, “relative binding score” read 73.3%.
`E131K` — result for “relative binding score”: 100%.
`S63Y` — result for “relative binding score”: 57.5%.
For `D65R`, “relative binding score” read 71.1%.
`S171P` — result for “relative binding score”: 2.07%.
`L164P`: “relative binding score” 1.41%.
For `V43L`, “relative binding score” read 75.9%.
`I162L`: “relative binding score” 26.3%.
`H34Y`: “relative binding score” 80%.
